Measurements from different studies.
Parts stem from different laboratories: compare values within a part only. Positions count from the first letter of the parent shown.

Block 1
Target: Centromere-binding protein 1, full length, His-tagged (CBF1, Saccharomyces cerevisiae, UniProt P17106, residues 1-351)
UniProt P17106, sequence (whole entry, looked up): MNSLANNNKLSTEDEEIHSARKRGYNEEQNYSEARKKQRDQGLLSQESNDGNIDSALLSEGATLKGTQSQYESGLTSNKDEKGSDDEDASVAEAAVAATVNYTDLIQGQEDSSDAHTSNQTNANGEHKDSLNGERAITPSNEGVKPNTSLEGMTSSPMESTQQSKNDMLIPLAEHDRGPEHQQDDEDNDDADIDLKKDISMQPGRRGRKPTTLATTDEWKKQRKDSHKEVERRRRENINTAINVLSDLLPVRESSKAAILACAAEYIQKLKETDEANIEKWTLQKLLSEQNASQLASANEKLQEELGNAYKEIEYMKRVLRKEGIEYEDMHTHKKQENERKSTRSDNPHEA
Method: competition protein-binding microarray
Form: double-stranded DNA, one strand shown
Medium: in vitro
Tested at: 2 µM
Setting: whole 60-bp probe, lowest competitor level
Added: Pho4 competitor, 0.05 µM
Reading: higher = stronger binding
`TACACCCAGTCATCCGGCGTGACGGGATCTCCACTTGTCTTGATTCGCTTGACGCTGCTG` gave a fluorescence intensity of 69.9 a.u.
With `AAAAAAATTAGGGGACGCGTGGGTAGGGCCGGCTTTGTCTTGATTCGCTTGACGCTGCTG` the fluorescence intensity was 70.3 a.u.
The fluorescence intensity of `ACATCTTTCAATTTGCACGGGTGCAACCTCAAATATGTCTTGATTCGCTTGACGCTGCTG` is reported as 153 a.u.
`ACATTGGCATTGGCACTCATGACAATCATTTTGGAAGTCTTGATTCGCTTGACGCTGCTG` gave a fluorescence intensity of 84.9 a.u.
With `CGGGGTTAAGTTTGAGAAGTGGGTGGCTTGCAGCAGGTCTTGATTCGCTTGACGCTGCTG` the fluorescence intensity was 62.3 a.u.
`CTTCTGTAAATTTGTCAGGTGGGTGGACGCGCCCCGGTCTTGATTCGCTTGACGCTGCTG` gave a fluorescence intensity of 148 a.u.
`GGATCAACAAAATGGGGCGTGATGGAGAAAAAAAGTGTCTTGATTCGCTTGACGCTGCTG` has a fluorescence intensity of 174 a.u.

Block 2
Target: ABI1, truncated, D143A, DHFR fusion (Arabidopsis thaliana)
Method: DHFR PCA, deep sequencing
Medium: yeast
Setting: methotrexate growth selection, single substitutions
Added: (+)-ABA 0 µM
Relative to: wild-type fitted maximum
Reading: higher = stronger binding
Starting sequence: PYL1, truncated, DHFR fusion (Arabidopsis thaliana); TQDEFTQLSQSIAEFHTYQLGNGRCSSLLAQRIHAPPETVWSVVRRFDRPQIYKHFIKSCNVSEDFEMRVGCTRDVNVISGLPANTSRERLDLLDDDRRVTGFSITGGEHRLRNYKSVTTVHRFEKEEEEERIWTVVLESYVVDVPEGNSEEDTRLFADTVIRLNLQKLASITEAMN; partner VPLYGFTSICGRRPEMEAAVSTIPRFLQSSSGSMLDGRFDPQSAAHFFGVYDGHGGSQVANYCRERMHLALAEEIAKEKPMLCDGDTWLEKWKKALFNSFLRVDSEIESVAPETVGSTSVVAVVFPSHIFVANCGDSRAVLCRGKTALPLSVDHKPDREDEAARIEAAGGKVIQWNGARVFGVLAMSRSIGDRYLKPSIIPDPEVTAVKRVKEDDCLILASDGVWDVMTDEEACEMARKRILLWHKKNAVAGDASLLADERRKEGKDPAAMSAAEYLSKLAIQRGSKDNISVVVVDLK
For `E125S`, “relative binding score” read 35.3%.
`D92P`: “relative binding score” 2.78%.
Under “relative binding score”, `T154V` is recorded as 34.8%.
`L94H`: “relative binding score” 5.56%.
Under “relative binding score”, `T101A` is recorded as 2.44%.
`H34F` — result for “relative binding score”: 20.9%.
`T6N` — result for “relative binding score”: 32.9%.
`R69H` — result for “relative binding score”: 8.06%.

Block 3
Target: Sal-like protein 4, full length isoform A (SALL4, Homo sapiens, UniProt Q9UJQ4, residues 1-1053)
UniProt Q9UJQ4, sequence (whole entry, looked up): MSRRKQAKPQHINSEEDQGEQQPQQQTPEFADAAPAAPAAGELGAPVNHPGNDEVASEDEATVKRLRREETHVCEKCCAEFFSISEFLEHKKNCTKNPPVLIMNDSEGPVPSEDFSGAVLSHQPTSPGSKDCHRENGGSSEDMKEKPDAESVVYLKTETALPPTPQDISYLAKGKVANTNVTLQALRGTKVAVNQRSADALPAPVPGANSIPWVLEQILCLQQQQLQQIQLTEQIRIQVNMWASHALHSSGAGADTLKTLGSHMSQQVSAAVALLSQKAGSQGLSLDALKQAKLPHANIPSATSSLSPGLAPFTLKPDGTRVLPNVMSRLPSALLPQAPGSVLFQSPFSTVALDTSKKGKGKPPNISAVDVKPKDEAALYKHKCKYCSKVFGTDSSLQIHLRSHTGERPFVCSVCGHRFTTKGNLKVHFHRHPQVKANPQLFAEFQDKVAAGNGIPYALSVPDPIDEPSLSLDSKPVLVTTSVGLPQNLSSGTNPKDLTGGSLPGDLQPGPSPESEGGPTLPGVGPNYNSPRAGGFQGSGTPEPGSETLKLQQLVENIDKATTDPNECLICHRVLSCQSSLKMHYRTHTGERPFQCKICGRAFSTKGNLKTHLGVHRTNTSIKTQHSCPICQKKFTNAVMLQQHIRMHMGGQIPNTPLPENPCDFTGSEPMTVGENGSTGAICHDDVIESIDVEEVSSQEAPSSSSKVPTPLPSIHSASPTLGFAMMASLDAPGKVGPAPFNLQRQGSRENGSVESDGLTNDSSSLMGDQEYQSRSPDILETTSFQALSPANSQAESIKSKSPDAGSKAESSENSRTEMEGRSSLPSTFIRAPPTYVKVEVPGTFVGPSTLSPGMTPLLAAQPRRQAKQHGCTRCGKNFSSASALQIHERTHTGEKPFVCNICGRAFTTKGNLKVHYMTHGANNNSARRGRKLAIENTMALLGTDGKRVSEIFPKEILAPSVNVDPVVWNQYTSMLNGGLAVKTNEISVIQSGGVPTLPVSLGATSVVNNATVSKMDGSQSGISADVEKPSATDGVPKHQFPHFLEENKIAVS
Method: universal PBM
Form: double-stranded DNA, one strand shown
Medium: in vitro
Tested at: 600 nM
Setting: 8-mer, flanks averaged, mean of replicates
Reading: higher = stronger binding
With `TCTGAGCA` the E-score was -0.0612.
`ATAAACAT` has an E-score of 0.379.
`GACCTGCC` has an E-score of -0.327.
The E-score of `ACGCTAAT` is reported as 0.066.
For `AAGTAAAT`, the E-score was 0.371.
The E-score of `CGTGTATC` is reported as -0.0704.
With `GTTATAGA` the E-score was 0.318.
`CGGATCGA` gave an E-score of -0.213.
With `GACTTCCC` the E-score was -0.134.
With `ACCGGTCC` the E-score was -0.307.
For `ACTGGTAC`, the E-score was -0.167.
With `AGACGAGG` the E-score was -0.224.
`CTGGGGGC` has an E-score of -0.409.
For `ATTGAGTG`, the E-score was 0.0818.

Further values, each from its own experiment
`PhoQ, residues 284 288 289 292 302 303 ASASEQ` gave a fold induction of 1.3 (PhoP, residues 12 14 15 18 19 IQFRS (Escherichia coli, UniProt P23836); Sort-seq, item: YFP reporter; E. coli; PhoQ-PhoP variant library, added: 10 µM Mg2+; relative to: high Mg2+ state, higher = stronger signaling).

A few entries again (block 1):
`TACACCCAGTCATCCGGCGTGACGGGATCTCCACTTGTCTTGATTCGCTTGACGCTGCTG` gave a fluorescence intensity of 69.9 a.u.
With `AAAAAAATTAGGGGACGCGTGGGTAGGGCCGGCTTTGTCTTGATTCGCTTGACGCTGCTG` the fluorescence intensity was 70.3 a.u.
